# Measurements gathered from unrelated publications.
# Each numbered part is a random draw from the data of one study; scales do not carry over between parts.

# Series 1 — method: aptamer microarray, sandwich; molecule type: DNA with 2'F-ANA; matrix: in vitro; concentration: 200 nM; with: Cy3 exosite-II aptamer, 400 nM; direction: higher = stronger binding; oligonucleotide: GGTTGGTGTGGTTGG
# Target: Prothrombin, mature alpha-thrombin (F2, Homo sapiens, UniProt P00734)
# Setting: whole 15-mer aptamer, many near background
Modification,mean fluorescence intensity
2'F-ANA at 1 3 5 6 7 8 10 11 12 13 14,49.3 a.u.
2'F-ANA at 2 3 5 6 7 10 11 12 13 14,46.2 a.u.
2'F-ANA at 1 3 4 5 6 12 14,65.7 a.u.
2'F-ANA at 1 2 3 4 5 8 10 14,75.5 a.u.
2'F-ANA at 1 2 3 6 8 10 11 15,63.1 a.u.
2'F-ANA at 3 7 8 11 12 14 15,783 a.u.
2'F-ANA at 2 5 6 7 8 10 11 12 13,49.9 a.u.
2'F-ANA at 3 6 7 8 12 13 14 15,663 a.u.

# Series 2 — method: protein binding microarray; molecule type: double-stranded DNA, one strand shown; matrix: in vitro; concentration: not given; relative to: not given; direction: higher = stronger binding
# Target: Histone acetyltransferase KAT6A, both winged helices, GST fusion (KAT6A, Homo sapiens, UniProt Q92794, residues 1-181)
# Setting: 8-mer, flanks averaged, mean of 2 arrays, mostly near background
# Construct (chain): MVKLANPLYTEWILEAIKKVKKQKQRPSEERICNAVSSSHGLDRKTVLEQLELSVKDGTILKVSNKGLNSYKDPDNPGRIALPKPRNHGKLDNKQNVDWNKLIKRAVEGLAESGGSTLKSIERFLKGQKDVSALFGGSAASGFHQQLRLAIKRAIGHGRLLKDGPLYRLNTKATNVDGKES
Oligonucleotide,E-score
GCATGACC,-0.00676
AATCACCC,-0.173
GTCCTTTA,-0.162
CACTACGA,-0.101
CACAAGTC,-0.0583
CCAAGTAG,-0.304

# Series 3 — method: protein-binding microarray; molecule type: double-stranded DNA, one strand shown; matrix: in vitro; concentration: 250 nM; setting: 60-bp whole probe; with: salmon DNA 0.4 mg/ml; relative to: random background probes; direction: higher = stronger binding
# Target: Interferon regulatory factor 7, full length, phosphomimetic (IRF7, Homo sapiens, UniProt Q92985, residues 1-503, S101K/S471D/S472D/S475D/S476D/S477D/S483D/S484D/S487D)
# All sequences stand within: GCCTAGCAC … GTGCTAGGTCTTGATTCGCTTGACGCTGCTG
# Construct (chain): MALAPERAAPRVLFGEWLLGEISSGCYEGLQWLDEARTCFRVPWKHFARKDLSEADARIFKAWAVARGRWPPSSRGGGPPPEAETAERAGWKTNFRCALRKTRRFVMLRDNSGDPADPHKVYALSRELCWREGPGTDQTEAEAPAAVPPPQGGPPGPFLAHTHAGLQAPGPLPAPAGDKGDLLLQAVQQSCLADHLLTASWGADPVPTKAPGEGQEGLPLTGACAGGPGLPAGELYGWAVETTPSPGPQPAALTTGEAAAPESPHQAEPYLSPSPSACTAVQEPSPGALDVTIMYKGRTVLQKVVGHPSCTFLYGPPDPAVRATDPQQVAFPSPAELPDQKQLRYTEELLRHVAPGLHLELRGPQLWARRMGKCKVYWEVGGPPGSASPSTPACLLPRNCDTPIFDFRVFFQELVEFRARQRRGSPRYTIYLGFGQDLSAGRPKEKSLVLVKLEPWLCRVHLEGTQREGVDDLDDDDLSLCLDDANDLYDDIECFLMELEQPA
Oligonucleotide,log fluorescence [z-score]
GACGAACTGAGACTGAAGAC,0.15
TTAAGACTGGGTATCGGTTA,0.775
CTGACATGTAAATGTGACAT,-0.0672
TTACGTTTCGGTTCCGGTTA,7.85
TCACCTTTATGTCCTGTACT,0.475
GACGGACTGGGTATCGGGTC,0.0445
GACTGTTTGGTCCTGATCCT,-0.0632
TCAACTTTTATTTTCAGACT,0.267

# Single results of other studies
Molecule,target,assay,test system,setting,how to read,measurement,value
"PhoQ, residues 284 288 289 292 302 303 SQSLSM","PhoP, residues 12 14 15 18 19 QYCSL (Escherichia coli, UniProt P23836)","Sort-seq, refers to: YFP reporter",E. coli,"PhoQ-PhoP variant library, with: 10 µM Mg2+","relative to: high Mg2+ state, higher = stronger signaling",fold induction,8.44

# Excerpt of the above (series 1):
Modification,mean fluorescence intensity
2'F-ANA at 1 2 3 4 5 8 10 14,75.5 a.u.
2'F-ANA at 1 3 5 6 7 8 10 11 12 13 14,49.3 a.u.
2'F-ANA at 3 6 7 8 12 13 14 15,663 a.u.
